Results gathered from unrelated publications.
A part holds a random share of what one study measured.
Sequence of UniProt Q06187 (whole entry, looked up): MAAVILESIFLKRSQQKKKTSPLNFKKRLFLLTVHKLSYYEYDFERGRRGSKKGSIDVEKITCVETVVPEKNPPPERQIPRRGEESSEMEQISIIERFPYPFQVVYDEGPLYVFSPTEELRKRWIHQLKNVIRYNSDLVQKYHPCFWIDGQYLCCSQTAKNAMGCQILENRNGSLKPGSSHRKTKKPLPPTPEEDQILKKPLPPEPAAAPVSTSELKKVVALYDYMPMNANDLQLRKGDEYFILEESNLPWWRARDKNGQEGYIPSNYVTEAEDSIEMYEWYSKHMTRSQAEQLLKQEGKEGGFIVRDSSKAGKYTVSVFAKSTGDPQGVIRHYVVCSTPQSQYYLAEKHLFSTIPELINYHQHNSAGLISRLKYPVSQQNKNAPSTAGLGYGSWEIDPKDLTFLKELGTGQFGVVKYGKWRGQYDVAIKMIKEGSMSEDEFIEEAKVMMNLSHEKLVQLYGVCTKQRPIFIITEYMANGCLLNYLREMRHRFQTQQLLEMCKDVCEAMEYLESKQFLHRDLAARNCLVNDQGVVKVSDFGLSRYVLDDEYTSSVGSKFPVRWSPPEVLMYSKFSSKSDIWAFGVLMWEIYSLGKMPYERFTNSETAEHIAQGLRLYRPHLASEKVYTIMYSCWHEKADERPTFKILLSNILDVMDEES
Sequence of UniProt Q13557 (whole entry, looked up): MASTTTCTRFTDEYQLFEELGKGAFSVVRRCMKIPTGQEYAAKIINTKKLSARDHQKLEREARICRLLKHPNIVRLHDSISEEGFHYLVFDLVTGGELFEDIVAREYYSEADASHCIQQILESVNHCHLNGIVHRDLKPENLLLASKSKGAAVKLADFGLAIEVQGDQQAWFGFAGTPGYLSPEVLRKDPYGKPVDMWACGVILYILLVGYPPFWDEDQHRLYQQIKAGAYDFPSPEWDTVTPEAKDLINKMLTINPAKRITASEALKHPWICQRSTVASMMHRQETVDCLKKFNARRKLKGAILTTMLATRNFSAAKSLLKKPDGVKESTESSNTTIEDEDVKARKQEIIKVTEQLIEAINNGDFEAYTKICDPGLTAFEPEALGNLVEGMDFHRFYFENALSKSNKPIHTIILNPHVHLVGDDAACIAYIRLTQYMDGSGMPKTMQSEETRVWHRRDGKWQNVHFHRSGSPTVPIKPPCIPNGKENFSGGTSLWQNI
Sequence of UniProt Q6PHR2 (whole entry, looked up): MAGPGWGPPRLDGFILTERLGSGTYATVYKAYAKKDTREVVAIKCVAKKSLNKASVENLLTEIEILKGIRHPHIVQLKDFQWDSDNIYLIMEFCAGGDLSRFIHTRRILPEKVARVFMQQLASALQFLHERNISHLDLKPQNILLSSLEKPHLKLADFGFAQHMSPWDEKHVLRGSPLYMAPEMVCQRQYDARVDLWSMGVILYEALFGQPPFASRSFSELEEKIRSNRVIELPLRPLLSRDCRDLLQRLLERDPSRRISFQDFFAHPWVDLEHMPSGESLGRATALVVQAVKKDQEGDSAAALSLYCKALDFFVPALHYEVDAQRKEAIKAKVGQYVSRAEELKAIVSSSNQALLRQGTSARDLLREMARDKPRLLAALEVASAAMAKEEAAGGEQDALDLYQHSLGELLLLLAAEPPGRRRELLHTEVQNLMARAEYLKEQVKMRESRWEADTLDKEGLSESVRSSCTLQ
Sequence of UniProt P35626 (whole entry, looked up): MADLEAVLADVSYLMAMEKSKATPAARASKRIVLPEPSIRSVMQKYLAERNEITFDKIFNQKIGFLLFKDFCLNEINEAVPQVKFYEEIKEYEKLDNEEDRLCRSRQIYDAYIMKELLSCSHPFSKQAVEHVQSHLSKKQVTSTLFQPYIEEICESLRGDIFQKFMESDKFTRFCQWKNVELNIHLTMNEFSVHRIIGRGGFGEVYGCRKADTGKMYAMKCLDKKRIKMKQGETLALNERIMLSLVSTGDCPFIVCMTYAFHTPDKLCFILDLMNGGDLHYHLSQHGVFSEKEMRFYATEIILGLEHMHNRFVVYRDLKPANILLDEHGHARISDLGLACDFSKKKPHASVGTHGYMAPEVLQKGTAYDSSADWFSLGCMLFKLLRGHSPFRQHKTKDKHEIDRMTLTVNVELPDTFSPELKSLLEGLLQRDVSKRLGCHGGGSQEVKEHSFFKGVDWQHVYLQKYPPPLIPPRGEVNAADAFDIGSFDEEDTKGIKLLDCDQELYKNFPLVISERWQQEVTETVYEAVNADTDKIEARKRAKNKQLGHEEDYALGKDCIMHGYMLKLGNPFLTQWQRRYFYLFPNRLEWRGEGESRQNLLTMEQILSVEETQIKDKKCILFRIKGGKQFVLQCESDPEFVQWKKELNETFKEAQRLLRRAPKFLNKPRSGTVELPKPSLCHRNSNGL
Sequence of UniProt Q9BYT3 (whole entry, looked up): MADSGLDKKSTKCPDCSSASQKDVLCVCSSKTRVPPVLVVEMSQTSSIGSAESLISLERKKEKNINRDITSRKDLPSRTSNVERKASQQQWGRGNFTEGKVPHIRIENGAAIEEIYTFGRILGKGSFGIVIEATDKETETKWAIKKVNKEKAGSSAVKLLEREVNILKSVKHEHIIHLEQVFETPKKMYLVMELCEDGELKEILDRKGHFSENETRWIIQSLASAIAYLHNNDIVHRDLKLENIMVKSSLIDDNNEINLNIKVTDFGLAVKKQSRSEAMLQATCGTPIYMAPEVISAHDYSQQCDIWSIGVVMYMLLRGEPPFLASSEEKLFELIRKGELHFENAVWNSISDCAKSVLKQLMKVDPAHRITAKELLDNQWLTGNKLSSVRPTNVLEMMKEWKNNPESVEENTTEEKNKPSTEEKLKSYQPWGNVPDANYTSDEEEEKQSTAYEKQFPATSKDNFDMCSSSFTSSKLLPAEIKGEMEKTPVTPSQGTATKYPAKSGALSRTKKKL
Sequence of UniProt P30530 (whole entry, looked up): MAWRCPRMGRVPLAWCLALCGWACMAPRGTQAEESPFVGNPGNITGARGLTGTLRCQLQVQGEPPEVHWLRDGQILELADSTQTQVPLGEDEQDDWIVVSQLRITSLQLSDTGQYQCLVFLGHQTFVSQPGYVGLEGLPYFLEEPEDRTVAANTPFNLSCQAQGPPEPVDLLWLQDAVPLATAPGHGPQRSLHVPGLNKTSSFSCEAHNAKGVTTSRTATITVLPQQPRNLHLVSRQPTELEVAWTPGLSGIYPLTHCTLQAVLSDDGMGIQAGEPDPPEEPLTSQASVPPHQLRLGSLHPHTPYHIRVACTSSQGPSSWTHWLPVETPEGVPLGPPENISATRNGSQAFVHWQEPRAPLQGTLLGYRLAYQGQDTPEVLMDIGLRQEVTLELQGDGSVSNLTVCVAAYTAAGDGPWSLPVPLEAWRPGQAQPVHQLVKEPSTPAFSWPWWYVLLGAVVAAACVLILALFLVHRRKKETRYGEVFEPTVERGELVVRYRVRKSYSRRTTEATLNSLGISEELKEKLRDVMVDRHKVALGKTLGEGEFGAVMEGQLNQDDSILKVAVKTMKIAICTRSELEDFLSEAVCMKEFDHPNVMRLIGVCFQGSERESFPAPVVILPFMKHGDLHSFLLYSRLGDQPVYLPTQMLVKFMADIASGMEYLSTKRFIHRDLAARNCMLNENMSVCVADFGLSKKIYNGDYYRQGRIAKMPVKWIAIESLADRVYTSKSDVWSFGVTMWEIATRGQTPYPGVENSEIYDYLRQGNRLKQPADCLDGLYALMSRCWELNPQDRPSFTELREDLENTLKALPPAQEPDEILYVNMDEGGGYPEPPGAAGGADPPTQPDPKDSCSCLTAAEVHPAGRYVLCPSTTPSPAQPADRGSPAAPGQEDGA
Sequence of UniProt P11802 (whole entry, looked up): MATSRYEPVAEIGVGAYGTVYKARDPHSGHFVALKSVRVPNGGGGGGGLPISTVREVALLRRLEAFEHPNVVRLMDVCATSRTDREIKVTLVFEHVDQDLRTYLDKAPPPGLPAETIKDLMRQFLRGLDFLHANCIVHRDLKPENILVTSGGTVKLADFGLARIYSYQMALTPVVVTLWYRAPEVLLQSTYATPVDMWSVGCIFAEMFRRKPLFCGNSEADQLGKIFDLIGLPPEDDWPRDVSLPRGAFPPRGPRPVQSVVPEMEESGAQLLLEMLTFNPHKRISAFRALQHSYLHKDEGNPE
Sequence of UniProt P07948 (whole entry, looked up): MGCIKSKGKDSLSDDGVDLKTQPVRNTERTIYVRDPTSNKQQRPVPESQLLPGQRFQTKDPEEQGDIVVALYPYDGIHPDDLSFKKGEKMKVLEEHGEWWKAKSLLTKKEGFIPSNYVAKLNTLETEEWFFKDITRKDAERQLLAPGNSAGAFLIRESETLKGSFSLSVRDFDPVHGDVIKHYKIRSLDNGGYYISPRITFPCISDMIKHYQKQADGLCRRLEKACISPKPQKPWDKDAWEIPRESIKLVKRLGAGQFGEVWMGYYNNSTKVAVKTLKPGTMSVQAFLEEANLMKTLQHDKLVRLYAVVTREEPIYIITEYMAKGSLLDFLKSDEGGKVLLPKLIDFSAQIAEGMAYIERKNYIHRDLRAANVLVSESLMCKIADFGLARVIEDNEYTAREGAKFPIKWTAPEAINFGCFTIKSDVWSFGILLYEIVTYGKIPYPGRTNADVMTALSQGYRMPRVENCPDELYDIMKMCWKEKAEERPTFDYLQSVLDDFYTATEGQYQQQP
Sequence of UniProt P51955 (whole entry, looked up): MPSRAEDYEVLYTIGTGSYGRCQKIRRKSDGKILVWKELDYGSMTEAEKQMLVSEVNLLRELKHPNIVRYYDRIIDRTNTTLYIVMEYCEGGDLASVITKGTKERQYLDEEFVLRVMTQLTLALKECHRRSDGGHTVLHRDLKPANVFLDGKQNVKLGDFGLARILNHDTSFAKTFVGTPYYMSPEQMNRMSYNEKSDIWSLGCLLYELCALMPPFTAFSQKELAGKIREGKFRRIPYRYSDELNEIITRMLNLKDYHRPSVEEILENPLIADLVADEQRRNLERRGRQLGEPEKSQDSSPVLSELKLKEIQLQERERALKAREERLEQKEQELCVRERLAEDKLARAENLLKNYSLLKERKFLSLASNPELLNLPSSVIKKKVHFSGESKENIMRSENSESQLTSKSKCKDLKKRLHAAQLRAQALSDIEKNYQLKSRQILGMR

Series 1
Structure (SMILES): CSc1nc(-c2ccnc(N[C@@H](C)c3ccccc3)c2)c(-c2ccc(F)cc2)[nH]1 (racemic)
Effect on: enzyme activity
Mode: inhibitor
Tested at: 0.5 µM
Relative to: control
target	remaining activity
NEK2 (Homo sapiens, UniProt P51955)	89.9%
PRKCA (Homo sapiens, UniProt P17252)	108%
STK39 (Homo sapiens, UniProt Q9UEW8)	95%
CHEK2 (Homo sapiens, UniProt O96017)	94.2%
GRK3 (Homo sapiens, UniProt P35626)	96.4%
Cyclin-dependent kinase 4, with cyclin D1 (CDK4, Homo sapiens, UniProt P11802)	109%
Tyrosine-protein kinase Lyn, isoform B (LYN, Homo sapiens, UniProt P07948)	89.4%
CAMK2D (Homo sapiens, UniProt Q13557)	99.3%
STK10 (Homo sapiens, UniProt O94804)	86.8%
DAPK1 (Homo sapiens, UniProt P53355)	101%

Series 2
SMILES: CC(C)(O)c1cncc(-c2nc3ccc(F)cc3n2C2CC2)c1
Effect on: cell-free assay
Method: competition with immobilised ligand
Tested at: 1 µM
target	remaining binding
AXL (Homo sapiens, UniProt P30530)	100%
MAP3K9 (Homo sapiens, UniProt P80192)	100%
STK33 (Homo sapiens, UniProt Q9BYT3)	100%
IRAK4 (Homo sapiens, UniProt Q9NWZ3)	100%
Tyrosine-protein kinase JAK1, JH1 (JAK1, Homo sapiens, UniProt P23458)	100%
BTK (Homo sapiens, UniProt Q06187)	83%
Tyrosine-protein kinase JAK2, JH1 (JAK2, Homo sapiens, UniProt O60674)	100%
TLK1 (Homo sapiens, UniProt Q9UKI8)	100%
TSSK1B (Homo sapiens, UniProt Q9BXA7)	97%
Ribosomal protein S6 kinase alpha-1, N-terminal kinase domain (RPS6KA1, Homo sapiens, UniProt Q15418)	100%
PHKG1 (Homo sapiens, UniProt Q16816)	100%
PIM3 (Homo sapiens, UniProt Q86V86)	98%
ACVR1 (Homo sapiens, UniProt Q04771)	100%
ULK3 (Homo sapiens, UniProt Q6PHR2)	95%
LCK (Homo sapiens, UniProt P06239)	100%

Series 3
Target: Interferon regulatory factor 7, full length, phosphomimetic (IRF7, Homo sapiens, UniProt Q92985, residues 1-503, S101K/S471D/S472D/S475D/S476D/S477D/S483D/S484D/S487D)
Method: protein-binding microarray
Form: double-stranded DNA, one strand shown
Matrix: in vitro
Tested at: 250 nM
Setting: 60-bp whole probe
With: salmon DNA 0.4 mg/ml
Relative to: random background probes
Direction: higher = stronger binding
Constant ends, left off below: GCCTAGCAC … GTCTTGATTCGCTTGACGCTGCTG
Construct (chain): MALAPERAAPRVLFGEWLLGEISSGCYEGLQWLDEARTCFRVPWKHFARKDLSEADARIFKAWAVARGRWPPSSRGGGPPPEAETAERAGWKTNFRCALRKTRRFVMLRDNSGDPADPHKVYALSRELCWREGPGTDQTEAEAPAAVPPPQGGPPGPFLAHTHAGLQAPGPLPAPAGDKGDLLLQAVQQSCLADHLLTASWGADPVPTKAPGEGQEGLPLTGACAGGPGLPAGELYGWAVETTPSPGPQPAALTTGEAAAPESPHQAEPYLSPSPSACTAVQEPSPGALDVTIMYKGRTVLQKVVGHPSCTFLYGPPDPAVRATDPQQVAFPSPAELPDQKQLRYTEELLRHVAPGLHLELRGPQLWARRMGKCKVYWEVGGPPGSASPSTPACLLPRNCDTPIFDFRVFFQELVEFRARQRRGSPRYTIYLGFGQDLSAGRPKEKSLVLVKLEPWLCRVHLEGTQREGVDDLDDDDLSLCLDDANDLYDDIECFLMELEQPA
Oligonucleotide	log fluorescence [z-score]
ATAGATTTCAGTATCGATTAGTGCTAG	1.11
GACGGTCTCGGTTTCGGTACGTGCTAG	9.06
TTAGGAATGGGTCTCGGTTAGTGCTAG	1
TTAGGTTTGGGTTCCGGTTAGTGCTAG	1.9
TTACATTTCGGGTATCGATTAGTGCTA	1.82
TTAGGTCTCCTTATCCTTTTGTGCTAG	0.659
TCATATTTATGTATACAACTGTGCTAG	0.978
GACGGTATCGGTTTCGGAACGTGCTAG	8.93

Further values, each from its own experiment
Substance	partner	test	system	setting	quantity	value
SF3B1 (Homo sapiens, UniProt O75533)	SF3B6 (Homo sapiens, UniProt Q9Y3B4)	cross-linking MS	cells	with: BSPNO	cross-linked residues	K413 to K29

For quick reference, copied from above (series 3):
Oligonucleotide	log fluorescence [z-score]
GACGGTCTCGGTTTCGGTACGTGCTAG	9.06
TTAGGAATGGGTCTCGGTTAGTGCTAG	1
TTAGGTTTGGGTTCCGGTTAGTGCTAG	1.9
TTACATTTCGGGTATCGATTAGTGCTA	1.82
TTAGGTCTCCTTATCCTTTTGTGCTAG	0.659
